Results from different studies.
Lines come from different studies, so protocols differ. Numbers after ± are the reported error. Values after ≈ are worked out from the molar mass of the structure shown.
Organism: Escherichia coli

Compound | assay | system | setting | how to read | quantity | result
CC(NC(=O)c1ccccc1)C(CCCCCCCCCCCCCCC(=O)CCCCCCCC(OC(=O)c1ccccc1)C(C)NC(=O)c1ccccc1)OC(=O)c1ccccc1 (stereo not drawn) | resazurin | ATCC 10536 | 50 µM | – | growth inhibition | 0 ± 4.89%
CC(CCCOC(=O)CCC[N+](C)(C)C)C1CCC2C3CCC4CC(OC(=O)CCC[N+](C)(C)C)CCC4(C)C3CC(OC(=O)CCC[N+](C)(C)C)C12C (stereo not drawn) | microbial growth, disc diffusion | ATCC25922 | 62.5 µg/disc, 24 h | – | inhibition zone | 9 mm
COc1c(C)c(OC(=O)c2ccccc2)c(C)c(OC(=O)c2ccccc2)c1C(=O)/C=C/c1ccccc1 | microbial growth, well diffusion | ATCC25922 | 5 µg/mL | – | inhibition zone | 9 mm
CO[C@@H]1[C@@H](OC)[C@H]2O[C@H]3[C@H](OC)[C@@H](OC)[C@@H](O[C@H]4[C@H](OC)[C@@H](OC)[C@@H](O[C@H]5[C@H](OC)[C@@H](OC)[C@@H](O[C@H]6[C@H](OC)[C@@H](OC)[C@@H](O[C@H]7[C@H](OC)[C@@H](OC)[C@@H](O[C@H]8[C@H](OC)[C@@H](OC)[C@@H](O[C@@H]1[C@@H](Cn1cc(CCCC(=O)N[C@H]9CCOC9=O)nn1)O2)O[C@@H]8Cn1cc(CCCC(=O)N[C@H]2CCOC2=O)nn1)O[C@@H]7Cn1cc(CCCC(=O)N[C@H]2CCOC2=O)nn1)O[C@@H]6Cn1cc(CCCC(=O)N[C@H]2CCOC2=O)nn1)O[C@@H]5Cn1cc(CCCC(=O)N[C@H]2CCOC2=O)nn1)O[C@@H]4Cn1cc(CCCC(=O)N[C@H]2CCOC2=O)nn1)O[C@@H]3Cn1cc(CCCC(=O)N[C@H]2CCOC2=O)nn1 | LuxR reporter, antagonist | DH5α sensor strain | 10 µM, together with: OHHL 200 nM | – | inhibition | 15 ± 1%
COc1c(C)c(OS(=O)(=O)c2ccccc2)c(C)c2c1C(=O)CC(c1ccccc1)O2 (stereo not drawn) | microbial killing, broth dilution | ATCC25922 | – | – | MBC | > 5000 µg/mL
O=C(CCCc1cn(C[C@H]2O[C@@H]3O[C@H]4[C@H](O)[C@@H](O)[C@@H](O[C@H]5[C@H](O)[C@@H](O)[C@@H](O[C@H]6[C@H](O)[C@@H](O)[C@@H](O[C@H]7[C@H](O)[C@@H](O)[C@@H](O[C@H]8[C@H](O)[C@@H](O)[C@@H](O[C@H]9[C@H](O)[C@@H](O)[C@@H](O[C@H]2[C@H](O)[C@H]3O)O[C@@H]9CO)O[C@@H]8CO)O[C@@H]7CO)O[C@@H]6CO)O[C@@H]5CO)O[C@@H]4CO)nn1)N[C@H]1CCOC1=O | LuxR reporter, antagonist | DH5α sensor strain | 200 µM, together with: OHHL 200 nM | – | inhibition | 28 ± 3%
CC(C)C1=CC2=CCC3C(C)(C(=O)OCCC[N+](C)(C)C)CCCC3(C)C2CC1 (stereo not drawn) | microbial growth, disc diffusion | ATCC25922 | 62.5 µg/disc, 24 h | – | inhibition zone | 9 mm
O=C(CCCc1cn(C[C@H]2O[C@@H]3O[C@H]4[C@H](O)[C@@H](O)[C@@H](O[C@H]5[C@H](O)[C@@H](O)[C@@H](O[C@H]6[C@H](O)[C@@H](O)[C@@H](O[C@H]7[C@H](O)[C@@H](O)[C@@H](O[C@H]8[C@H](O)[C@@H](O)[C@@H](O[C@H]9[C@H](O)[C@@H](O)[C@@H](O[C@H]2[C@H](O)[C@H]3O)O[C@@H]9Cn2cc(CCCC(=O)N[C@H]3CCOC3=O)nn2)O[C@@H]8Cn2cc(CCCC(=O)N[C@H]3CCOC3=O)nn2)O[C@@H]7Cn2cc(CCCC(=O)N[C@H]3CCOC3=O)nn2)O[C@@H]6Cn2cc(CCCC(=O)N[C@H]3CCOC3=O)nn2)O[C@@H]5Cn2cc(CCCC(=O)N[C@H]3CCOC3=O)nn2)O[C@@H]4Cn2cc(CCCC(=O)N[C@H]3CCOC3=O)nn2)nn1)N[C@H]1CCOC1=O | LuxR reporter, antagonist | DH5α sensor strain | 20 µM, together with: OHHL 200 nM | – | inhibition | 58 ± 18%
CC[C@H](C)[C@H](NC(=O)[C@H](CC1CCCCC1)NC(=O)[C@@H](Cc1ccccc1)NC(=O)[C@@H](N)CCCN)C(=O)N[C@H](Cc1ccccc1)C(=O)N[C@@H](Cc1cn(Cc2ccccc2)cn1)C(N)=O | bacterial growth | ATCC 35218 | – | – | IC50 | > 20 µg/mL
O=c1c(O)ccccc1Br | microbial growth, broth dilution | ATCC35218 | – | – | MIC80 | 66.7 µM (≈ 13.4 µg/mL)
N=C(N)NCCC[C@@H]1NC(=O)[C@H](CCCNC(=N)N)NC(=O)[C@@H](C(c2ccccc2)c2ccccc2)NC(=O)[C@H](Cc2c[nH]c3ccccc23)NC(=O)[C@@H](C(c2ccccc2)c2ccccc2)NC(=O)[C@@H](CCCNC(=N)N)NC(=O)[C@@H](CCCNC(=N)N)NC1=O | – | ATCC BAA-2452 | 2 x MIC, 24 h, preformed biofilm | – | biofilm mass reduction | 63 to 69%
Cc1ccnc(-c2cc(C(=O)NCCCCCC(=O)N[C@@H](CCCNC(=N)N)C(=O)N[C@@H](Cc3c[nH]c4ccccc34)C(=O)N[C@@H](CCCNC(=N)N)C(=O)N[C@@H](Cc3c[nH]c4ccccc34)C(=O)N[C@@H](CCCNC(=N)N)C(=O)N[C@@H](Cc3c[nH]c4ccccc34)C(N)=O)ccn2)c1 | – | resistant | 16 µM, dark | relative to: untreated | reduction in viable count | < 3 log10 CFU
COc1ccc2cc3[n+](cc2c1OC)CCc1cc2c(cc1-3)OCO2.[Cl][Fe-]([Cl])([Cl])[Cl] | – | – | 24 h, 37 °C | – | MBC | > 800 µM
N.N.[Cl][Pt+].c1ccc2c(c1)cnc1ccccc12 | ICP-MS | – | 20 µM, 24 h | – | cellular uptake | 7.34%
O=C(Oc1cccccc1=O)c1ccccc1 | microbial growth, broth dilution | ATCC35218 | – | – | MIC80 | > 100 µM
O=C(CCCc1cn(C[C@H]2O[C@@H]3O[C@H]4[C@H](O)[C@@H](O)[C@@H](O[C@H]5[C@H](O)[C@@H](O)[C@@H](O[C@H]6[C@H](O)[C@@H](O)[C@@H](O[C@H]7[C@H](O)[C@@H](O)[C@@H](O[C@H]8[C@H](O)[C@@H](O)[C@@H](O[C@H]2[C@H](O)[C@H]3O)O[C@@H]8Cn2cc(CCCC(=O)N[C@H]3CCOC3=O)nn2)O[C@@H]7Cn2cc(CCCC(=O)N[C@H]3CCOC3=O)nn2)O[C@@H]6Cn2cc(CCCC(=O)N[C@H]3CCOC3=O)nn2)O[C@@H]5Cn2cc(CCCC(=O)N[C@H]3CCOC3=O)nn2)O[C@@H]4Cn2cc(CCCC(=O)N[C@H]3CCOC3=O)nn2)nn1)N[C@H]1CCOC1=O | LuxR reporter, antagonist | DH5α sensor strain | 4 µM, together with: OHHL 200 nM | – | inhibition | 7 ± 2%
CCCCCCCCCCCC(=O)Oc1c(C)c(OC)c2c(/C=C/c3ccccc3)c(CCCCCCCCCC)c(=O)oc2c1C | microbial killing, broth dilution | ATCC25922 | – | – | MBC | > 5000 µg/mL
OC[C@H]1O[C@@H]2O[C@H]3[C@H](O)[C@@H](O)[C@@H](O[C@H]4[C@H](O)[C@@H](O)[C@@H](O[C@H]5[C@H](O)[C@@H](O)[C@@H](O[C@H]6[C@H](O)[C@@H](O)[C@@H](O[C@H]7[C@H](O)[C@@H](O)[C@@H](O[C@H]1[C@H](O)[C@H]2O)O[C@@H]7CO)O[C@@H]6CO)O[C@@H]5CO)O[C@@H]4CO)O[C@@H]3CO | LuxR reporter, antagonist | DH5α sensor strain | 20 µM, together with: OHHL 200 nM | – | inhibition | 1 ± 3%
CC[C@H](C)[C@H](NC(=O)[C@H](CCCN)NC(=O)[C@H](CC(N)=O)NC(=O)[C@H](Cc1c[nH]c2ccccc12)NC(=O)[C@H](Cc1ccccc1)NC(=O)[C@H](CCCN)NC(=O)[C@H](CCCCNC(=N)N)NC(=O)[C@H](CC(C)C)NC(=O)[C@H](Cc1c[nH]c2ccccc12)NC(=O)[C@H](CCCN)NC(=O)[C@H](CCCCNC(=N)N)NC(=O)[C@H](CC(C)C)NC(=O)CNC(C)=O)C(=O)N[C@@H](CCCN)C(=O)N[C@@H](CCCCNC(=N)N)C(N)=O | – | ATCC 25922 | concentration not given, together with: FeCl3 4 µM | relative to: without salt | MIC fold change | 1 fold
CO[C@@H]1[C@@H](OC)[C@H]2O[C@H]3[C@H](OC)[C@@H](OC)[C@@H](O[C@H]4[C@H](OC)[C@@H](OC)[C@@H](O[C@H]5[C@H](OC)[C@@H](OC)[C@@H](O[C@H]6[C@H](OC)[C@@H](OC)[C@@H](O[C@H]7[C@H](OC)[C@@H](OC)[C@@H](O[C@@H]1[C@@H](Cn1cc(CCCC(=O)N[C@H]8CCOC8=O)nn1)O2)O[C@@H]7Cn1cc(CCCC(=O)N[C@H]2CCOC2=O)nn1)O[C@@H]6Cn1cc(CCCC(=O)N[C@H]2CCOC2=O)nn1)O[C@@H]5Cn1cc(CCCC(=O)N[C@H]2CCOC2=O)nn1)O[C@@H]4Cn1cc(CCCC(=O)N[C@H]2CCOC2=O)nn1)O[C@@H]3Cn1cc(CCCC(=O)N[C@H]2CCOC2=O)nn1 | LuxR reporter, antagonist | DH5α sensor strain | 10 µM, together with: OHHL 200 nM | – | inhibition | 8 ± 5%
CC(CCCOC(=O)CCC[N+](C)(C)C)C1CCC2C3CCC4CC(OC(=O)CCC[N+](C)(C)C)CCC4(C)C3CCC12C (stereo not drawn) | microbial growth, disc diffusion | ATCC25922 | 15.6 µg/disc, 24 h | – | inhibition zone | 11 mm

For quick reference, copied from above:
Compound | assay | system | setting | how to read | quantity | result
O=C(CCCc1cn(C[C@H]2O[C@@H]3O[C@H]4[C@H](O)[C@@H](O)[C@@H](O[C@H]5[C@H](O)[C@@H](O)[C@@H](O[C@H]6[C@H](O)[C@@H](O)[C@@H](O[C@H]7[C@H](O)[C@@H](O)[C@@H](O[C@H]8[C@H](O)[C@@H](O)[C@@H](O[C@H]9[C@H](O)[C@@H](O)[C@@H](O[C@H]2[C@H](O)[C@H]3O)O[C@@H]9CO)O[C@@H]8CO)O[C@@H]7CO)O[C@@H]6CO)O[C@@H]5CO)O[C@@H]4CO)nn1)N[C@H]1CCOC1=O | LuxR reporter, antagonist | DH5α sensor strain | 200 µM, together with: OHHL 200 nM | – | inhibition | 28 ± 3%
O=c1c(O)ccccc1Br | microbial growth, broth dilution | ATCC35218 | – | – | MIC80 | 66.7 µM (≈ 13.4 µg/mL)
